Experimental data from different studies.
Protocols differ between the studies behind these lines. Converted amounts (≈) assume the structure as drawn.
Organism: Candida albicans

CC(C)C[C@H](NC(=O)CNC(=O)[C@H](CCCCN)NC(=O)[C@@H](N)CC(C)C)C(=O)N[C@@H](C)C(=O)N[C@@H](C)C(=O)N[C@@H](CCCCN)C(=O)N[C@@H](CC(C)C)C(=O)N[C@@H](CC(C)C)C(=O)NCC(=O)N[C@@H](CC(C)C)C(=O)N[C@@H](CCCCN)C(=O)N[C@@H](CCCCN)C(=O)O — growth inhibition (ATCC 10231; 128 µM): 100%
CC(C)C[C@@H](NC(=O)[C@H](C)NC(=O)CNC(=O)[C@@H](NC=O)C(C)C)C(=O)N[C@@H](C)C(=O)N[C@@H](C(=O)N[C@H](C(=O)N[C@@H](C(=O)N[C@@H](Cc1c[nH]c2ccccc12)C(=O)N[C@H](CC(C)C)C(=O)N[C@@H](Cc1c[nH]c2ccccc12)C(=O)N[C@H](CC(C)C)C(=O)N[C@@H](Cc1c[nH]c2ccccc12)C(=O)N[C@H](CC(C)C)C(=O)N[C@@H](Cc1c[nH]c2ccccc12)C(=O)NCCO)C(C)C)C(C)C)C(C)C — inhibition (concentration not given): ≤ 10%
CC(CCC(=O)[O-])C1CCC2C3CCC4CC(O)CCC4(C)C3CC(O)C12C.C[N+](C)(C)CC(O)CC(=O)O (stereo not drawn) — inhibition zone (TISTR 5554; 1 mg per disc, 18 to 24 h, 37 °C, 6 mm disc): inactive
CC[C@H](C)[C@H](NC(=O)[C@H](CCCNC(=N)N)NC(=O)[C@H](CCCNC(=N)N)NC(=O)[C@H](CCCCN)NC(=O)[C@H](CC(N)=O)NC(=O)[C@H](CS)NC(=O)[C@H](Cc1ccc(O)cc1)NC(=O)CNC(=O)CNC(=O)[C@H](CCCNC(=N)N)NC(=O)[C@H](CCCCN)NC(=O)[C@H](CCCNC(=N)N)NC(=O)[C@H](CCCCN)NC(=O)[C@H](CC(C)C)NC(=O)[C@H](CC(C)C)NC(=O)[C@H](CS)NC(=O)[C@H](Cc1c[nH]cn1)NC(=O)[C@H](C)NC(=O)[C@H](C)NC(=O)[C@H](CS)NC(=O)[C@H](C)NC(=O)[C@H](C)NC(=O)[C@H](Cc1c[nH]cn1)NC(=O)[C@H](CC(N)=O)NC(=O)[C@@H](NC(=O)[C@H](CCCCN)NC(=O)[C@@H](NC(=O)CNC(=O)[C@H](CCCCN)NC(=O)[C@H](C)NC(=O)[C@H](CCC(=O)O)NC(=O)[C@H](C)NC(=O)[C@H](CO)NC(=O)[C@H](CC(C)C)NC(=O)[C@H](CC(C)C)NC(=O)[C@H](CC(=O)O)NC(=O)[C@H](CS)NC(=O)[C@@H](NC(=O)[C@@H](N)C(C)C)[C@@H](C)O)C(C)C)C(C)C)C(=O)N[C@@H](CS)C(=O)N[C@H](C(=O)N[C@@H](CS)C(=O)N[C@@H](CCCNC(=N)N)C(=O)N[C@@H](CC(N)=O)C(N)=O)C(C)C — antifungal concentration (ATCC 90028): > 4.5 µg/mL
CC(CCC(=O)[O-])C1CCC2C3CCC4CC(O)CCC4(C)C3CCC12C.C[N+](C)(C)CC(O)CC(=O)O (stereo not drawn) — inhibition zone (TISTR 5554; 1 mg per disc, 18 to 24 h, 37 °C, 6 mm disc): inactive
[Ag+].[S-]c1ccccn1.c1ccc(P(c2ccccc2)c2ccccc2)cc1.c1ccc(P(c2ccccc2)c2ccccc2)cc1 — inhibition zone diameter (MTCC 227, DMSO; 0.1 mL of 50 mg/mL in 8 mm well, 18 to 24 h): 18 mm
CN1CC(=O)N=C1N.C[C@H](CCC(=O)O)[C@H]1CC[C@H]2[C@@H]3[C@H](O)C[C@@H]4C[C@H](O)CC[C@]4(C)[C@H]3CC[C@]12C — inhibition zone (TISTR 5554; 1 mg per disc, 18 to 24 h, 37 °C, 6 mm disc): inactive
CC[C@@H](C)[C@@H](NC(=O)[C@@H](C)NC(=O)[C@@H](CCCCN)NC(=O)[C@@H](CC(C)C)NC(=O)[C@@H](C)NC(=O)[C@H](NC(=O)[C@@H](Cc1c[nH]cn1)NC(=O)[C@@H](CC(C)C)NC(=O)[C@H](NC(=O)[C@H](NC(=O)[C@@H](CCCCN)NC(=O)[C@@H](CCCCN)NC(=O)[C@@H](C)NC(=O)[C@@H](CO)NC(=O)[C@@H](CCCCN)NC(=O)[C@@H](Cc1ccccc1)NC(=O)[C@H](NC(=O)[C@@H](CCCCN)NC(=O)[C@@H](CC(C)C)NC(=O)[C@@H](Cc1ccccc1)NC(=O)[C@@H](CO)NC(=O)[C@@H](CCCCN)NC(=O)[C@@H](Cc1c[nH]c2ccccc12)NC(=O)[C@@H](CCCCN)NC(C)=O)[C@H](C)O)[C@H](C)O)C(C)C)[C@H](C)O)C(=O)N[C@H](CO)C(=O)N[C@H](CO)C(N)=O — MIC90 (ATCC 24433; 48 h, 30 °C): 50 µg/mL (≈ 16.7 µM)
C[C@@H](O)[C@H](NC(=O)[C@H](CCC(=O)O)NC(=O)[C@H](Cc1ccccc1)NC(=O)[C@H](Cc1c[nH]c2ccccc12)NC(=O)[C@H](CCCCN)NC(=O)[C@H](CCCCN)NC(=O)[C@H](CCCCN)NC(=S)Nc1ccc2c(c1)C(=O)OC21c2ccc(O)cc2Oc2cc(O)ccc21)C(=O)N[C@@H](Cc1c[nH]c2ccccc12)C(=O)N[C@@H](Cc1ccccc1)C(=O)N[C@H](C(=O)N[C@@H](CCC(=O)O)C(=O)N[C@@H](Cc1c[nH]c2ccccc12)C(=O)N1CCC[C@H]1C(=O)N[C@@H](CCCCN)C(=O)N[C@@H](CCCCN)C(=O)N[C@@H](CCCCN)C(=O)N[C@@H](CCCCN)C(=O)O)[C@@H](C)O — duration of growth inhibition (10-fold MIC, 25 °C): 4 h
CC(CCC(=O)[O-])C1CCC2C3C(O)CC4CC(O)CCC4(C)C3CCC12C.C[N+](C)(C)CC(O)CC(=O)O (stereo not drawn) — inhibition zone (TISTR 5554; 1 mg per disc, 18 to 24 h, 37 °C, 6 mm disc): inactive
CC(=NNC(=N)N)c1nnn(-c2ccc(C#CC3(O)CCCCC3)cc2)c1C — selectivity index (WI-38, SC5314 wild type; reference: WI-38 IC50 over MIC): 17.6
COc1ccc(N2C(=O)C=CC2=O)cc1 — mRNA level (qRT-PCR, item: ALS3; 1 µg/mL, 12 h): decreased

Some of these lines once more:
CC(CCC(=O)[O-])C1CCC2C3C(O)CC4CC(O)CCC4(C)C3CCC12C.C[N+](C)(C)CC(O)CC(=O)O (stereo not drawn) — inhibition zone (TISTR 5554; 1 mg per disc, 18 to 24 h, 37 °C, 6 mm disc): inactive
CC[C@H](C)[C@H](NC(=O)[C@H](CCCNC(=N)N)NC(=O)[C@H](CCCNC(=N)N)NC(=O)[C@H](CCCCN)NC(=O)[C@H](CC(N)=O)NC(=O)[C@H](CS)NC(=O)[C@H](Cc1ccc(O)cc1)NC(=O)CNC(=O)CNC(=O)[C@H](CCCNC(=N)N)NC(=O)[C@H](CCCCN)NC(=O)[C@H](CCCNC(=N)N)NC(=O)[C@H](CCCCN)NC(=O)[C@H](CC(C)C)NC(=O)[C@H](CC(C)C)NC(=O)[C@H](CS)NC(=O)[C@H](Cc1c[nH]cn1)NC(=O)[C@H](C)NC(=O)[C@H](C)NC(=O)[C@H](CS)NC(=O)[C@H](C)NC(=O)[C@H](C)NC(=O)[C@H](Cc1c[nH]cn1)NC(=O)[C@H](CC(N)=O)NC(=O)[C@@H](NC(=O)[C@H](CCCCN)NC(=O)[C@@H](NC(=O)CNC(=O)[C@H](CCCCN)NC(=O)[C@H](C)NC(=O)[C@H](CCC(=O)O)NC(=O)[C@H](C)NC(=O)[C@H](CO)NC(=O)[C@H](CC(C)C)NC(=O)[C@H](CC(C)C)NC(=O)[C@H](CC(=O)O)NC(=O)[C@H](CS)NC(=O)[C@@H](NC(=O)[C@@H](N)C(C)C)[C@@H](C)O)C(C)C)C(C)C)C(=O)N[C@@H](CS)C(=O)N[C@H](C(=O)N[C@@H](CS)C(=O)N[C@@H](CCCNC(=N)N)C(=O)N[C@@H](CC(N)=O)C(N)=O)C(C)C — antifungal concentration (ATCC 90028): > 4.5 µg/mL
